Results pooled from the literature.
A part holds a random share of what one study measured.

Block 1 — method: RNA Bind-n-Seq; form: RNA; matrix: in vitro; concentration: 365 nM; baseline: no-protein control; reading: higher = stronger binding
Target: RNA binding protein fox-1 homolog 2, RRM domain, GST-SBP tag (RBFOX2, Homo sapiens, UniProt O43251-10, residues 100-194)
Notes: natural RNA segment, single round, ends assumed
Constant ends, left off below: GGGAGUUCUACAGUCCGACGAUC … UGGAAUUCUCGGGUGCCAA
Construct (chain): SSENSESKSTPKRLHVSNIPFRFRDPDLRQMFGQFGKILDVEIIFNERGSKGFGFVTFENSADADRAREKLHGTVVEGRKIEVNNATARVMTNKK
Oligonucleotide	RBNS enrichment (R)
UUAAGAAUCUAGGUCCGCCCUCAAGCCCAUACUGACCAUGCCUCAUCCAGAGCUCCUCUGAAGCCAGGGGGCUAACGGAUGUUGUGUGGAGUCCUGGCUGGAGGUCCUCC	0.207
UUCCACCUCGUGCACAGCGCUCUGCACAGACAACACGCUCAAUAAAAGUUCAGCCAUAGCAGCAAAACCCUGUGGCUGAGGUUCCUGUGUCCAGCACUCACUGGGGGCAA	0.282
CAGUAAGCCUAAAAGUUAGCAGAAGAUGGCCUCCUGCCAGCAGGAAAUCUUUACCCUUUAGUACCCGAACCAGUCUCAAGGUGUUCUUUGGAAAUAACCAGGGUUAAAGU	0.442
UUCAUGCUUAUAUAGAAUCUGAGUUCAUGCUGAAUACUUUUCAGCCAAUAAUUUAUAGCCUUUCCCUUAAAUCAAGAUUGAGUUUAAAAUUAUAGUUUGUCUUUUGUCUU	0.472
ACCAUCACAUACCAGUAACUCGGUGGGCAGGGAGUCUGUUCCCCCGUCCUUGCAUUCCGCUGGCUGACCUGUUAGACCUGUCCUUGUGAAUGCCACCGUUUCCUCUAAGA	0.515
AAAGAUAUAAGAAUAAUUUUUUAGUCCUAAAUGCUGUUUUGUUUACUUUCUGUCAAGAUAUUUACCCGUGUCAAAUUCAAACUACAGUACUGUGUAAUUAUGUAUAAAGU	0.642
UAAGUUUAAUAUCCUAAAAGGAAUGCCAAUUAAGUUUUGUUAACUGUGUCAUCAACUUAUCCUAGUACCUCAGUGUUCAUUCCUGUUACCUGCAUAUCUUCUUAAAAGAA	1.08
ACGCAUCAGCAUGCUCAAGGACUCCUAGAGUCUCUGCUGCCUGCCCACUGCACCACCAGGCAGCCAGGAUUCUAACCCCAUGCAGGCAACCGCCUCCGGAUGGAGCAGAG	0.731
CCCGAGCCCUCCACACCAGCCUCCUGUAUCUCAUCAGGUCCCUUCUCAGUACUGUAUUUGCUCAGUGCAUCAGGAAUGGGUGUAUGGGUGUGUGUGGGUGGGUGUGAGUG	0.268
GUGGAUCUGCGGUGAAGCCAAGCCGCAAGGUUACAAGGCAUCCUCACCAGGGGCCCCGCCUGCUGCUCCCAGGUGGCCUGCGGCCACUGCUAUGCUCAAGGACCUGGAAA	0.508
GCCGCCCUCGGGCGCACGGCCUGCCUGUCGCAUGUUUGUGUCUGCCUCGUCCCCUCCCCUGGUGCCUGUGUCUGCAGAAAAACAAGACCAGAUGUGAUUUGUUUUUAAAA	1.52
CCAAAAGUCUUCCAUGAAAUGUAGCAGAGUUUCUGUCUGCCCUGCAUUACCUGCCAGCGAGUCAAGGUAGGGGAUCCAGCAAACGGUUUUGGGAAUUCAGACUGUGGAAA	0.776

Block 2 — method: protein binding microarray; form: double-stranded DNA, one strand shown; matrix: in vitro; concentration: not given; baseline: not given; reading: higher = stronger binding
Target: Histone acetyltransferase KAT6A, winged helix 2, GST fusion (KAT6A, Homo sapiens, UniProt Q92794, residues 85-181)
Notes: 8-mer, flanks averaged, mean of 2 arrays, mostly near background
Residues (chain): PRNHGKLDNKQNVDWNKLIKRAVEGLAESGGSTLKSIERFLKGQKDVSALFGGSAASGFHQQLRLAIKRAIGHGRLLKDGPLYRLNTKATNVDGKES
Oligonucleotide	E-score
CCGAAGGC	0.231
GTAGCAAC	0.0353
ATATCATA	-0.0656
ATTGTCTA	0.0188
CAGTTCCG	-0.00208
CGAGCCGA	0.124
CGGCAAAC	0.131
ATGACTGA	-0.187
CTGTGGTA	-0.00686
AACACTTA	-0.25
CCCGAAAC	-0.0139
CTTGAGAC	-0.233
GGGACAAA	0.0217
CAGATCAG	0.0236
ATAGGACG	-0.247
AACCGAAA	0.189
TAGATGCA	-0.0949
GTATTCGA	-0.188
ACCAGTCA	-0.183
CCGCAAAA	0.165
CGCGCTGC	0.11
AAACCTGC	0.0253

Block 3 — method: aptamer microarray, sandwich; form: DNA with 2'F-ANA; matrix: in vitro; concentration: 200 nM; with: Cy3 exosite-II aptamer, 400 nM; reading: higher = stronger binding; oligonucleotide: GGTTGGTGTGGTTGG
Target: Prothrombin, mature alpha-thrombin (F2, Homo sapiens, UniProt P00734)
Notes: whole 15-mer aptamer, many near background
Modification	mean fluorescence intensity
2'F-ANA at 4 7 9 11 15	230 a.u.
2'F-ANA at 1 2 3 4 5 7 8 13 15	98 a.u.
2'F-ANA at 1 2 3 4 5 7 11	53.9 a.u.
2'F-ANA at 5 7 11 12 13 15	94 a.u.
2'F-ANA at 2 4 7 12 13 14	146 a.u.
2'F-ANA at 1 2 3 6 9 10 11 12 13 14	56.1 a.u.
2'F-ANA at 1 2 7 9 12 14	72.6 a.u.
2'F-ANA at 2 3 6 8 9 10 12 14	293 a.u.
2'F-ANA at 1 4 5 7 8 9 10 11 14	45.1 a.u.
2'F-ANA at 10 15	179 a.u.
2'F-ANA at 2 4 11 13 15	286 a.u.
2'F-ANA at 1 2 3 4 6 7 11 14	58.2 a.u.
2'F-ANA at 1 2 3 4 9 12 14	78.9 a.u.
2'F-ANA at 1 2 3 4 5 7 8 15	76.7 a.u.
2'F-ANA at 1 4 5 6 7 9 10 12 13 15	48 a.u.
2'F-ANA at 5 6 9 12 13 15	93.8 a.u.

Block 4 — method: RNA Bind-n-Seq; form: RNA; matrix: in vitro; concentration: not given; baseline: input RNA pool; reading: higher = stronger binding
Target: RING finger protein unkempt homolog, zinc fingers 1-6, GST-SBP tag (UNK, Homo sapiens, UniProt Q9C0B0, residues 30-357)
Notes: RNA with constant flanks, human and mouse sites, ends assumed
Constant ends, left off below: GGGAGUUCUACAGUCCGACGAUC … CAACAGAGGAUUGAGCAUCA
Residues (chain): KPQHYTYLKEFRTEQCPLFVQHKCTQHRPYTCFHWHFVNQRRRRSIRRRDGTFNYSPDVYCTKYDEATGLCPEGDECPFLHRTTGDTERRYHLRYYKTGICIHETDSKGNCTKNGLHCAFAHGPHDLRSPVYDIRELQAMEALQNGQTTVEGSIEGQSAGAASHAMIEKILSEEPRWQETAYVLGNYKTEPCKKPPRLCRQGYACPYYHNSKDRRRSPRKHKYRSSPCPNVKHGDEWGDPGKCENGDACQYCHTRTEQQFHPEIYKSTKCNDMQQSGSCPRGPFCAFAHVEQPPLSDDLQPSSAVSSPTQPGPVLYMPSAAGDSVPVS
Oligonucleotide	bound/input enrichment
CUGCAUUUUGCAUGCAUAGUUUAAGAUUACUGGGUGCAGAGAGGGUUCAUUUCUCAAAAUUUAGUCACUGAUAAAUCAUUGUAACGGAUCAUUAUAAAAAUCAUAAACAUAUUUUGUUUG	2.05 ratio
UAAGAGAACAGCCAGAUGGUUUAUAUGAAUAAUCUUUAUCUGCAGGAUGGUGGAUUGGUAAAUUAGGAGAAUGUUGUUUGAGAUAUCAAGAUUUAUGUCUGGGAACUAAAAUAUAUAAUG	2.12 ratio
GAGUCCAGCAAGGCCAGAAUGGAGUCUAUGAAUCGGCCCUACACUUCACUUGUGCCCCCUUUAUCCCCGCAACCUAAGAUAGUCACCCCCUACACUGCUUCACAGCCUUCACCACCUCUA	0.684 ratio
AGUCUAUGUUUUGCACUGCUAACUAUGAUGAGGGUUUAAAAAAAUGCUUCUUCAGGGUCCUUUCACUGAGGACCUAUGCAGUCUACUUAAUGCUGUGAAUUACAUUUUUCAAAUGUUUAA	0.154 ratio
UAUAAUAAUCAUGAAAUUCGUUCCGGGAAGCACAUUGGUGUCUGCAUCUCAGUUGCCAACAAUAGGCUUUUUGUGGGCUCGAUUCCUAAGAGUAAAACCAAGGAGCAGAUUCUUGAGGAA	0.81 ratio
CCCCUAUCUAGGCCUUCUUACGAGCCAAAACCUGCCCCUACUCCUCCUAGACCUAACCUGACUAGAAAAGCUAUUACCUAAAACAAUUUCACAGCACCAAAUCUCCACCUCCAUCAUCAC	15.6 ratio
UGUUCCCAGAGCCCCCAGCGCAGGCCGGGAUGUUCGUCCUGGUGGAAAUGGUGGACACCGUCCGGAUCCCCCCUUGGCAGUUUGAGAGGAAGCUCAACGACUCCAUUGCCGAGGAGCUGA	0.144 ratio
GCCUGGCUUGUGGAUCAUGUAUAUGCCAUCCGCGAGGCAGCCACCAGCAACCUGAAGAAGCUAGUGGAAAAGUUUGGGAAGGAGUGGGCCCAUGCCACAAUCAUCCCCAAGGUCUUGGCC	0.0852 ratio
ACAUUGGGAAAUGUUUUGGUGACUGUCAAAAGGAACUUUGACAAAUGCAUUAGUAACCAAAUAAGGCAAAUGGAAGAAGUAAAGAUCUCAAAAAAGAGUAAAGUUGGAAUUCUUCCAUUU	0.46 ratio
UCCUCCGUGAUGUAGACUGGGGAGACGUGGACUACCUCAUCGUAGACACCCCGCCUGGCACGUCUGACGAACACCUCUCAGUGGUCCAGUACCUGGCUGCGGCACACAUUGAUGGGGCAG	4.61 ratio
AAUGCACAUACUGACUGGUUAUUGGAUGUUUAUGCUAGGAAUAUAAAGACAUUAAAGAAGCUCCCAAGUGUUCUUAAAGAGCUGCCUGAGAAUCUAAAUGUAUGUCCUGGAGUGCAUACU	0.13 ratio

A few entries again (block 4):
Oligonucleotide	bound/input enrichment
AGUCUAUGUUUUGCACUGCUAACUAUGAUGAGGGUUUAAAAAAAUGCUUCUUCAGGGUCCUUUCACUGAGGACCUAUGCAGUCUACUUAAUGCUGUGAAUUACAUUUUUCAAAUGUUUAA	0.154 ratio
UAUAAUAAUCAUGAAAUUCGUUCCGGGAAGCACAUUGGUGUCUGCAUCUCAGUUGCCAACAAUAGGCUUUUUGUGGGCUCGAUUCCUAAGAGUAAAACCAAGGAGCAGAUUCUUGAGGAA	0.81 ratio
CCCCUAUCUAGGCCUUCUUACGAGCCAAAACCUGCCCCUACUCCUCCUAGACCUAACCUGACUAGAAAAGCUAUUACCUAAAACAAUUUCACAGCACCAAAUCUCCACCUCCAUCAUCAC	15.6 ratio
UGUUCCCAGAGCCCCCAGCGCAGGCCGGGAUGUUCGUCCUGGUGGAAAUGGUGGACACCGUCCGGAUCCCCCCUUGGCAGUUUGAGAGGAAGCUCAACGACUCCAUUGCCGAGGAGCUGA	0.144 ratio
GCCUGGCUUGUGGAUCAUGUAUAUGCCAUCCGCGAGGCAGCCACCAGCAACCUGAAGAAGCUAGUGGAAAAGUUUGGGAAGGAGUGGGCCCAUGCCACAAUCAUCCCCAAGGUCUUGGCC	0.0852 ratio
ACAUUGGGAAAUGUUUUGGUGACUGUCAAAAGGAACUUUGACAAAUGCAUUAGUAACCAAAUAAGGCAAAUGGAAGAAGUAAAGAUCUCAAAAAAGAGUAAAGUUGGAAUUCUUCCAUUU	0.46 ratio
UCCUCCGUGAUGUAGACUGGGGAGACGUGGACUACCUCAUCGUAGACACCCCGCCUGGCACGUCUGACGAACACCUCUCAGUGGUCCAGUACCUGGCUGCGGCACACAUUGAUGGGGCAG	4.61 ratio
AAUGCACAUACUGACUGGUUAUUGGAUGUUUAUGCUAGGAAUAUAAAGACAUUAAAGAAGCUCCCAAGUGUUCUUAAAGAGCUGCCUGAGAAUCUAAAUGUAUGUCCUGGAGUGCAUACU	0.13 ratio
